# Measurements of several laboratories.
# Every numbered part comes from another study and shows a few of its results, in no order. “And” joins repeats or separate records; there may be more than shown.
# Chain of UniProt Q02779 (whole entry, looked up): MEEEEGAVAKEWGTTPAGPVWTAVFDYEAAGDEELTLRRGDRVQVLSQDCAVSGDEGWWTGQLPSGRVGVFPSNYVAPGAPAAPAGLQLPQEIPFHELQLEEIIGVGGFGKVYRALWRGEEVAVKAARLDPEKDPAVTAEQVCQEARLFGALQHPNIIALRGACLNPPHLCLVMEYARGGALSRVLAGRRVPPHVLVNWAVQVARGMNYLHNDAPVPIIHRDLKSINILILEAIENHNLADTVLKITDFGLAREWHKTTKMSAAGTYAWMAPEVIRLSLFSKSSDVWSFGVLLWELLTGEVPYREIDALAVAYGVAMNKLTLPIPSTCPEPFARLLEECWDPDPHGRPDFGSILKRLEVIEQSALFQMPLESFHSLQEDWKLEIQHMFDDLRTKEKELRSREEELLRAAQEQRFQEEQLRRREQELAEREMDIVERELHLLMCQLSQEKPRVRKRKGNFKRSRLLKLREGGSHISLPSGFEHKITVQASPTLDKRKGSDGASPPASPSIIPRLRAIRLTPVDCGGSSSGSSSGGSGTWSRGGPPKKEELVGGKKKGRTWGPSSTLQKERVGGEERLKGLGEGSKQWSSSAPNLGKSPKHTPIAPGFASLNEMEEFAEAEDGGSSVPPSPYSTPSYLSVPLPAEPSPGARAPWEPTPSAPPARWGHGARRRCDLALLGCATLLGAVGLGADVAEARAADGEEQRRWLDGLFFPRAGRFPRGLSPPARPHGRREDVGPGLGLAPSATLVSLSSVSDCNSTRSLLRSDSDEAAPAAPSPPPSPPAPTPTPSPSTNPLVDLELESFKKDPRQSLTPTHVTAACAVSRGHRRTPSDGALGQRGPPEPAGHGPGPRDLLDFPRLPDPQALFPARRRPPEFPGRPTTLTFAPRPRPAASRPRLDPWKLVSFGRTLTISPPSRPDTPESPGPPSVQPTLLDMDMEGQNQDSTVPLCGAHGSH
# Chain of UniProt Q9UKI8 (whole entry, looked up): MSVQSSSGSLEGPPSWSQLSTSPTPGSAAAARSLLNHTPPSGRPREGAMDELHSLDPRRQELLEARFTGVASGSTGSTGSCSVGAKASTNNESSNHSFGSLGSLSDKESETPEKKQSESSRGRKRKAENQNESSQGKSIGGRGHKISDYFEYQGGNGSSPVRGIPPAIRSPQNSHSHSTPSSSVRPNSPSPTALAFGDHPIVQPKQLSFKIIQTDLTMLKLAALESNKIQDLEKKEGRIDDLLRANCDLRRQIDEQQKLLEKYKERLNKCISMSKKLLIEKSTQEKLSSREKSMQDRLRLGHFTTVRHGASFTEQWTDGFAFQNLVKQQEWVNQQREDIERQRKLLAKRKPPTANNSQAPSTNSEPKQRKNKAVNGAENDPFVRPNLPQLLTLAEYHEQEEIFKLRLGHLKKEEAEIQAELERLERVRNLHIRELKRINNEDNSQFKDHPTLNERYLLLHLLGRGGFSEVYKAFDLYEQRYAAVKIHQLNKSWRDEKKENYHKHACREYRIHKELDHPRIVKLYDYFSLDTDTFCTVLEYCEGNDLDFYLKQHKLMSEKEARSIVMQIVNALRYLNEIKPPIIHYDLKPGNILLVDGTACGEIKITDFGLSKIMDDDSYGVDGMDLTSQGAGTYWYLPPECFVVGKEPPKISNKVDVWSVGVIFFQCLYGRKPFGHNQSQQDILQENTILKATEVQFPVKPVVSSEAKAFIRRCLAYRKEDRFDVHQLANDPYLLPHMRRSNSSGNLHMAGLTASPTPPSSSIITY
# Chain of UniProt Q05512 (whole entry, looked up): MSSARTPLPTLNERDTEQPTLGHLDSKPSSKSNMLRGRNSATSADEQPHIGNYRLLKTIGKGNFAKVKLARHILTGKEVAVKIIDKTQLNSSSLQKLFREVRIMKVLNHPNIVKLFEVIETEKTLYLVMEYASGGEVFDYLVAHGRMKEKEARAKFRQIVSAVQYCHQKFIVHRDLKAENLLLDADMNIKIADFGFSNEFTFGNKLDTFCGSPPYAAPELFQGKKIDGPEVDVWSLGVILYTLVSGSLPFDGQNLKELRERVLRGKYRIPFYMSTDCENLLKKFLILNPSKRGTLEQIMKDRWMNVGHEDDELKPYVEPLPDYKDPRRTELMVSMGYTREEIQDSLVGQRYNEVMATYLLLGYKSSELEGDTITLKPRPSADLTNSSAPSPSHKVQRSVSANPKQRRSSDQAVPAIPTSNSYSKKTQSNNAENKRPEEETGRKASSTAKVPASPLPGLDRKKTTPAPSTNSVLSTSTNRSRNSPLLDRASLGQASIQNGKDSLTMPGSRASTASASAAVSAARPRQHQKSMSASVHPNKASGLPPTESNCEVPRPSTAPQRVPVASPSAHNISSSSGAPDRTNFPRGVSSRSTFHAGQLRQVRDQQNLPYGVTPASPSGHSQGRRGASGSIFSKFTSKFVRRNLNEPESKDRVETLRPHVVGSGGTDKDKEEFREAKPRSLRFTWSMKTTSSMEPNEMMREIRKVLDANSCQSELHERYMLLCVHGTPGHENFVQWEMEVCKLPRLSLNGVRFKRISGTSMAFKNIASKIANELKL
# Chain of UniProt P51957 (whole entry, looked up): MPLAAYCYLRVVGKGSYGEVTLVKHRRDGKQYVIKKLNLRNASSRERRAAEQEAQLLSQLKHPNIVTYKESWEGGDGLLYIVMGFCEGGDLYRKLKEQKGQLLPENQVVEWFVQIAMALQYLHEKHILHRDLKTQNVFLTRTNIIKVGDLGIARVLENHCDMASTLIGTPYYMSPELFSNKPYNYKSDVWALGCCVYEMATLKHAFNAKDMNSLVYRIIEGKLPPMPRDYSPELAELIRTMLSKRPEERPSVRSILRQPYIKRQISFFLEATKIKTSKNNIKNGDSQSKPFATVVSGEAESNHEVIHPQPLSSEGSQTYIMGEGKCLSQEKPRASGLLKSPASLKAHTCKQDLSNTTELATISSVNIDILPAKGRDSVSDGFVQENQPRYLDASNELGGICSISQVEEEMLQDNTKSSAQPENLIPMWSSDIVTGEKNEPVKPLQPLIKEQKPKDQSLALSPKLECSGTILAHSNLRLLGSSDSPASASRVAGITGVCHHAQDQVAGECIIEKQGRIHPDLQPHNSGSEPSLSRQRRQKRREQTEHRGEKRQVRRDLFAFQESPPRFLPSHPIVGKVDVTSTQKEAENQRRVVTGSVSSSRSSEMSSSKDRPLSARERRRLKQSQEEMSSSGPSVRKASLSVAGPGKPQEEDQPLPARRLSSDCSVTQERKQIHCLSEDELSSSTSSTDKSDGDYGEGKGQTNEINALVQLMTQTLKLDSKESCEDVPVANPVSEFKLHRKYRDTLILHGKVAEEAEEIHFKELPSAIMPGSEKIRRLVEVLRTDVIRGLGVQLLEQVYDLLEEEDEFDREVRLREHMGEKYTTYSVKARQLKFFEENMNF
# Chain of UniProt P49761 (whole entry, looked up): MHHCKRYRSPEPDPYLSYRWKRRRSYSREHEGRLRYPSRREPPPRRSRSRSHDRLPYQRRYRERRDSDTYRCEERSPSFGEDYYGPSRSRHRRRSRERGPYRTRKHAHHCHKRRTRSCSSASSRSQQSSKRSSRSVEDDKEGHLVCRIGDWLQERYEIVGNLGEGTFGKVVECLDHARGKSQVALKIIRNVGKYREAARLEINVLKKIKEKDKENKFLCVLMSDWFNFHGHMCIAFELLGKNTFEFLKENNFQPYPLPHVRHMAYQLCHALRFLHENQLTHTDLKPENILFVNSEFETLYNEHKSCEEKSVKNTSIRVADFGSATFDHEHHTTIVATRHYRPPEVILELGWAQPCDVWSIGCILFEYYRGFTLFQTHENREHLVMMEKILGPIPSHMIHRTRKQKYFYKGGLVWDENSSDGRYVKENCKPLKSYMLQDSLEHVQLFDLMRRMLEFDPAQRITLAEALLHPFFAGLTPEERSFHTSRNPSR
# Chain of UniProt Q9NWZ3 (whole entry, looked up): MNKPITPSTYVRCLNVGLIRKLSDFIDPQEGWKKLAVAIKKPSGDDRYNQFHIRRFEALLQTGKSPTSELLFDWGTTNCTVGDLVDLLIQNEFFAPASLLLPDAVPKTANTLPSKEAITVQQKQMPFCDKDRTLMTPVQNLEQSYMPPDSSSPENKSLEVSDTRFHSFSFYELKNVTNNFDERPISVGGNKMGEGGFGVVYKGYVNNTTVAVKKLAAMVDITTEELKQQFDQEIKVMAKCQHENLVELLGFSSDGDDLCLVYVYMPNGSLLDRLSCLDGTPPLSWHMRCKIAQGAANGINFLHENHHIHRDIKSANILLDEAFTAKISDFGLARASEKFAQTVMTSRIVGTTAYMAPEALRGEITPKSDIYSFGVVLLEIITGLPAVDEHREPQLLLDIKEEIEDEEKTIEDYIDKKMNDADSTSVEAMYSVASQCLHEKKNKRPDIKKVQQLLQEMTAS
# Chain of UniProt P24723 (whole entry, looked up): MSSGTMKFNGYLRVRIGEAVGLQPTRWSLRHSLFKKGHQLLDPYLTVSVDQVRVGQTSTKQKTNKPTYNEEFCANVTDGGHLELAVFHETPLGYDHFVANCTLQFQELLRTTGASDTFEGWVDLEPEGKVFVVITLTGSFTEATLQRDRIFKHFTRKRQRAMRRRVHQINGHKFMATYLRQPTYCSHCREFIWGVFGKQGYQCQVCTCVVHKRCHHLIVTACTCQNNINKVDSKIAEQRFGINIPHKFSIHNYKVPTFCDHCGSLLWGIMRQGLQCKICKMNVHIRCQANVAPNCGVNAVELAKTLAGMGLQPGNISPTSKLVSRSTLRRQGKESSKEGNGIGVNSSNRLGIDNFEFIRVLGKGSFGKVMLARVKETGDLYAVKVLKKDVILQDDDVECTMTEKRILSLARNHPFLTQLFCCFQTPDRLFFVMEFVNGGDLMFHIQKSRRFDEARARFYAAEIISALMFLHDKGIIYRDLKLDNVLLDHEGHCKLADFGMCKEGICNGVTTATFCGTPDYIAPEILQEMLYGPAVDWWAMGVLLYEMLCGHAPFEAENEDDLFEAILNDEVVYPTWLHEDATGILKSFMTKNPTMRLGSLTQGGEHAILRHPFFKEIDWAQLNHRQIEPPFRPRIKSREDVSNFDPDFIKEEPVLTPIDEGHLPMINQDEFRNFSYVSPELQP

# Study 1
# SMILES: O=C(O)c1cc(-c2ccc(C3CCNCC3)cc2)c2ccc(-c3ccc(C(F)(F)F)cc3)cc2c1
# Effect on: cell-free assay
# Method: competition with immobilised ligand
# Concentration: 1 µM
target,remaining binding
"Phosphorylase b kinase gamma catalytic chain, liver/testis isoform (PHKG2, Homo sapiens, UniProt P15735)",100%
"Mitogen-activated protein kinase kinase kinase 13 (MAP3K13, Homo sapiens, UniProt O43283)",100%
"Phosphatidylinositol 4,5-bisphosphate 3-kinase catalytic subunit gamma isoform (PIK3CG, Homo sapiens, UniProt P48736)",92%
"Tyrosine-protein kinase Fyn (FYN, Homo sapiens, UniProt P06241)",100%
"Mitogen-activated protein kinase kinase kinase 10 (MAP3K10, Homo sapiens, UniProt Q02779)",100%
"Phosphatidylinositol 4,5-bisphosphate 3-kinase catalytic subunit alpha isoform (PIK3CA, Homo sapiens, UniProt P42336)",100%
"Serine/threonine-protein kinase 26 (STK26, Homo sapiens, UniProt Q9P289)",100%
"Ribosomal protein S6 kinase alpha-5, N-terminal kinase domain (RPS6KA5, Homo sapiens, UniProt O75582)",100%
"Serine/threonine-protein kinase TAO2 (TAOK2, Homo sapiens, UniProt Q9UL54)",100%
"Serine/threonine-protein kinase tousled-like 1 (TLK1, Homo sapiens, UniProt Q9UKI8)",100%
"Protein kinase C eta type (PRKCH, Homo sapiens, UniProt P24723)",100%
"Non-receptor tyrosine-protein kinase TYK2, JH2 (TYK2, Homo sapiens, UniProt P29597)",100%
"Dual specificity protein kinase CLK3 (CLK3, Homo sapiens, UniProt P49761)",100%
"Tyrosine-protein kinase JAK1, JH1 (JAK1, Homo sapiens, UniProt P23458)",100%
"Interleukin-1 receptor-associated kinase 1 (IRAK1, Homo sapiens, UniProt P51617)",100%
"Tyrosine-protein kinase JAK2, JH1 (JAK2, Homo sapiens, UniProt O60674)",100%
"Macrophage-stimulating protein receptor (MST1R, Homo sapiens, UniProt Q04912)",100%
"Epidermal growth factor receptor (EGFR, Homo sapiens, UniProt P00533)",100%
"Activin receptor type-1 (ACVR1, Homo sapiens, UniProt Q04771)",100%

# Study 2
# Compound: O=S(=O)(NCCNC/C=C/c1ccc(Br)cc1)c1cccc2cnccc12
# Effect on: enzyme activity
# Mode: inhibitor
# Concentration: 0.5 µM
# Baseline: control
target,remaining activity [%]
"Leucine-rich repeat serine/threonine-protein kinase 2 (LRRK2, Homo sapiens, UniProt Q5S007)",86.2
"Dual specificity mitogen-activated protein kinase kinase 6 (MAP2K6, Homo sapiens, UniProt P52564)",81.3
"Serine/threonine-protein kinase Nek4 (NEK4, Homo sapiens, UniProt P51957)",96.9
"Mitogen-activated protein kinase kinase kinase kinase 2 (MAP4K2, Homo sapiens, UniProt Q12851)",51.1
"Ephrin type-A receptor 5 (EPHA5, Homo sapiens, UniProt P54756)",96.9
"Cyclin-dependent kinase 9, with cyclin T1 (CDK9, Homo sapiens, UniProt P50750)",87.8
"Casein kinase I isoform alpha (CSNK1A1, Homo sapiens, UniProt P48729)",57.9
"Serine/threonine-protein kinase Chk1 (CHEK1, Homo sapiens, UniProt O14757)",90.8
"RAC-gamma serine/threonine-protein kinase (AKT3, Homo sapiens, UniProt Q9Y243)",69
"Tyrosine-protein kinase BTK (BTK, Homo sapiens, UniProt Q06187)",97.4
"Protein kinase C iota type (PRKCI, Homo sapiens, UniProt P41743)",88.4
"Tyrosine-protein kinase Lyn (LYN, Homo sapiens, UniProt P07948)",126
"Protein kinase C delta type (PRKCD, Homo sapiens, UniProt Q05655)",38.1
"Mitogen-activated protein kinase kinase kinase 10 (MAP3K10, Homo sapiens, UniProt Q02779)",85.5
"Interleukin-1 receptor-associated kinase 4 (IRAK4, Homo sapiens, UniProt Q9NWZ3)",110
"cGMP-dependent protein kinase 1 (PRKG1, Homo sapiens, UniProt Q13976)",26.3
"Casein kinase II subunit alpha (CSNK2A1, Homo sapiens, UniProt P68400)",97.8
"Mast/stem cell growth factor receptor Kit (KIT, Homo sapiens, UniProt P10721)",101
"Mitogen-activated protein kinase 13 (MAPK13, Homo sapiens, UniProt O15264)",101
"MAP kinase-interacting serine/threonine-protein kinase 2 (MKNK2, Homo sapiens, UniProt Q9HBH9)",78.7
"Serine/threonine-protein kinase WNK2 (WNK2, Homo sapiens, UniProt Q9Y3S1)",99.3

# Study 3
# Compound: COc1cc(C(=O)N2CCC(N3CCN(C)CC3)CC2)ccc1Nc1ncc2c(n1)N(C)c1ccccc1C(=O)N2C
target,test,test system,conditions,inhibition
mouse FER,"probe labelling, KiNativ ATP probe",mouse brain lysate,"0.1 µM, activation loop site",-8%
MARK2 (human),"probe labelling, KiNativ ADP probe",human PBMC lysate,"concentration not given, LYS1 labelled site",-1.3%
BTK (human),"probe labelling, KiNativ ATP probe",human PBMC lysate,"concentration not given, LYS1 labelled site",3.4%
MAP3K1 (human),"probe labelling, KiNativ ATP probe",human PBMC lysate,"concentration not given, LYS2 labelled site",14.5%
mouse CaMK2δ,"probe labelling, KiNativ ATP probe",mouse brain lysate,0.1 µM,-6.7%
PCTAIRE1 (mouse),"probe labelling, KiNativ ATP probe",mouse brain lysate,"0.1 µM, LYS1 labelled site",8.3%
TNIK (human),"probe labelling, KiNativ, measured: Lys1 site peptide",PBMC lysate (human),"1 µM, added: ADP acyl-phosphate probe",5.9% and -3%
"Serine/threonine-protein kinase MARK2 (Mark2, Mus musculus, UniProt Q05512)",KiNativ profiling,mouse brain lysate,"0.1 µM, LYS1 site, added: ATP acyl phosphate probe",-16.1%
MAP2K6 (mouse),"probe labelling, KiNativ ADP probe",mouse brain lysate,"1 µM, LYS2 labelled site",8.7%
CDK5 (mouse),"probe labelling, KiNativ, measured: DLkPQNLLINR peptide, LYS2 site",brain tissue lysate (mouse),"1 µM, added: ATP acyl-phosphate probe",-6.7%
"Receptor tyrosine-protein kinase erbB-4 (Erbb4, Mus musculus, UniProt Q61527)",KiNativ profiling,mouse brain lysate,"0.1 µM, LYS1 site, added: ATP acyl phosphate probe",-14%

# Study 4
# Cell line: mouse MPNST tumor cells
# Method: high-content nuclear imaging
# Measured: cell number
# Concentration: 10 µM
# Time: 12 h
# Notes: mean of 2 replicates
# Baseline: plate mean
# Reading: higher = more cells
Compound,nuclei count
COc1ccc(Br)cc1S(=O)(=O)NC(=O)/C=C/c1ccccc1Cc1ccc2ccccc2c1,2.02 z-score
Cn1c(=O)c2c(ncn2CCO)n(C)c1=O,0.749 z-score
C=C1c2cccc(O)c2C(O)=C2C(=O)[C@]3(O)C(O)=C(C(N)=O)C(=O)[C@@H](N(C)C)[C@@H]3[C@@H](O)[C@H]12,2.4 z-score
CC(C)n1nc(C#Cc2ccccc2)c2c(N)ncnc21,1.33 z-score
CCCCN(CC)c1nc(C)nc2c1c(C)cn2-c1c(C)cc(C)cc1C,3.06 z-score
Cc1ccc(S(=O)(=O)NC(=O)NN2CC3CCCC3C2)cc1 (centres unmarked),0.115 z-score
Cc1cccc(-c2[nH]c(C34CCC(C(N)=O)(CC3)CC4)nc2-c2ccc3c(c2)OCO3)n1,-0.436 z-score
CN(C)c1cccc(Oc2cnc(Nc3cccc(O)c3)nc2)c1,0.6 z-score
CC(C)(C)NS(=O)(=O)c1cncc(-c2cc(F)c3nc(N)nn3c2)c1,0.512 z-score
Cc1nc(C)c(Cl)c(O)c1Cl,1.26 z-score
CCCc1cc(C)[nH]c(=O)c1CNC(=O)c1cc(-c2ccnc(N3CCN(C)CC3)c2)cc2c1cnn2C(C)C,-5.06 z-score

# Repeated from above (study 2):
target,remaining activity [%]
"Ephrin type-A receptor 5 (EPHA5, Homo sapiens, UniProt P54756)",96.9
"Cyclin-dependent kinase 9, with cyclin T1 (CDK9, Homo sapiens, UniProt P50750)",87.8
"Casein kinase I isoform alpha (CSNK1A1, Homo sapiens, UniProt P48729)",57.9
"Serine/threonine-protein kinase Chk1 (CHEK1, Homo sapiens, UniProt O14757)",90.8
"RAC-gamma serine/threonine-protein kinase (AKT3, Homo sapiens, UniProt Q9Y243)",69
"Tyrosine-protein kinase BTK (BTK, Homo sapiens, UniProt Q06187)",97.4
"Protein kinase C iota type (PRKCI, Homo sapiens, UniProt P41743)",88.4
"Tyrosine-protein kinase Lyn (LYN, Homo sapiens, UniProt P07948)",126
"Protein kinase C delta type (PRKCD, Homo sapiens, UniProt Q05655)",38.1
